{"data": "Assay results pooled from the literature", "NPR2": "Atrial natriuretic peptide receptor 2 (NPR2, Homo sapiens, UniProt P20594)", "S1PR2": "Sphingosine 1-phosphate receptor 2 (S1PR2, Homo sapiens, UniProt O95136)", "TLR4": "Toll-like receptor 4 (TLR4, Homo sapiens, UniProt O00206)", "note": "Numbers after ± are the reported error.", "chain of UniProt P20594 (whole entry, looked up)": "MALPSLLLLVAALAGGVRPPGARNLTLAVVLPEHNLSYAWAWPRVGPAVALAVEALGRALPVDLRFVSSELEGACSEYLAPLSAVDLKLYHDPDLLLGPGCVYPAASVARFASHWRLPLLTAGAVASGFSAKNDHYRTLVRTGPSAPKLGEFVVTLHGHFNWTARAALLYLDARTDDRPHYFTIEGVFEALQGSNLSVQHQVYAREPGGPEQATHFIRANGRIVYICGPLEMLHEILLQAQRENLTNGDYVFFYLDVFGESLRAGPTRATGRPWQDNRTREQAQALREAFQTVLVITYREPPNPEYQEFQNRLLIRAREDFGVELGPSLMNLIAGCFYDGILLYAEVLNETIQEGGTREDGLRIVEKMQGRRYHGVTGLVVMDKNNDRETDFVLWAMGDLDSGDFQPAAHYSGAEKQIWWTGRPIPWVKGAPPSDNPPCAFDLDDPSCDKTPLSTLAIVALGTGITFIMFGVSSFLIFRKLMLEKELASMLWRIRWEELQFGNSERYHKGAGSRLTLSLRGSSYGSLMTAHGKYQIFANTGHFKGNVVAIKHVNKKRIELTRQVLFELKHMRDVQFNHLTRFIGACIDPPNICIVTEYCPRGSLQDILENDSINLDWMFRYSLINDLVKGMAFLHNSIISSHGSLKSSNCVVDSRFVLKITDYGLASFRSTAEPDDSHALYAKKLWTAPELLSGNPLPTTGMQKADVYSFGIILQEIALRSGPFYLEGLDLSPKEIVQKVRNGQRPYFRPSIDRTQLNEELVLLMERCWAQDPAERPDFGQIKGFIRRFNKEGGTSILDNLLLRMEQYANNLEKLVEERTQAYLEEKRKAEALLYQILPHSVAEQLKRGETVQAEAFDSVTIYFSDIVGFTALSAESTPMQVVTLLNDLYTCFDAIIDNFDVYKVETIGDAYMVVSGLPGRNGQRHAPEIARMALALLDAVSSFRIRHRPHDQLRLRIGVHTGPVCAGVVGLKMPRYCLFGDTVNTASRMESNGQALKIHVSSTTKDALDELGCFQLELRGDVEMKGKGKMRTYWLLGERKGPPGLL", "chain of UniProt O95136 (whole entry, looked up)": "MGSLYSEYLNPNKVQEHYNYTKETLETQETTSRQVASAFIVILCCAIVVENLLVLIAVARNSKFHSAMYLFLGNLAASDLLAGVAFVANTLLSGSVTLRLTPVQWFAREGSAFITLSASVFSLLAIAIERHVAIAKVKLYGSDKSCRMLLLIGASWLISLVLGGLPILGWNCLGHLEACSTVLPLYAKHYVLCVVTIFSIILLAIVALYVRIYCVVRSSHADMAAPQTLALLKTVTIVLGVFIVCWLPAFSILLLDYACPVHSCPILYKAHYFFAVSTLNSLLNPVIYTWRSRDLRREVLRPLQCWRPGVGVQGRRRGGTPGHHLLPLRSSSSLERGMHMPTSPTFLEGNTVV", "chain of UniProt O75762 (whole entry, unmodified, looked up)": "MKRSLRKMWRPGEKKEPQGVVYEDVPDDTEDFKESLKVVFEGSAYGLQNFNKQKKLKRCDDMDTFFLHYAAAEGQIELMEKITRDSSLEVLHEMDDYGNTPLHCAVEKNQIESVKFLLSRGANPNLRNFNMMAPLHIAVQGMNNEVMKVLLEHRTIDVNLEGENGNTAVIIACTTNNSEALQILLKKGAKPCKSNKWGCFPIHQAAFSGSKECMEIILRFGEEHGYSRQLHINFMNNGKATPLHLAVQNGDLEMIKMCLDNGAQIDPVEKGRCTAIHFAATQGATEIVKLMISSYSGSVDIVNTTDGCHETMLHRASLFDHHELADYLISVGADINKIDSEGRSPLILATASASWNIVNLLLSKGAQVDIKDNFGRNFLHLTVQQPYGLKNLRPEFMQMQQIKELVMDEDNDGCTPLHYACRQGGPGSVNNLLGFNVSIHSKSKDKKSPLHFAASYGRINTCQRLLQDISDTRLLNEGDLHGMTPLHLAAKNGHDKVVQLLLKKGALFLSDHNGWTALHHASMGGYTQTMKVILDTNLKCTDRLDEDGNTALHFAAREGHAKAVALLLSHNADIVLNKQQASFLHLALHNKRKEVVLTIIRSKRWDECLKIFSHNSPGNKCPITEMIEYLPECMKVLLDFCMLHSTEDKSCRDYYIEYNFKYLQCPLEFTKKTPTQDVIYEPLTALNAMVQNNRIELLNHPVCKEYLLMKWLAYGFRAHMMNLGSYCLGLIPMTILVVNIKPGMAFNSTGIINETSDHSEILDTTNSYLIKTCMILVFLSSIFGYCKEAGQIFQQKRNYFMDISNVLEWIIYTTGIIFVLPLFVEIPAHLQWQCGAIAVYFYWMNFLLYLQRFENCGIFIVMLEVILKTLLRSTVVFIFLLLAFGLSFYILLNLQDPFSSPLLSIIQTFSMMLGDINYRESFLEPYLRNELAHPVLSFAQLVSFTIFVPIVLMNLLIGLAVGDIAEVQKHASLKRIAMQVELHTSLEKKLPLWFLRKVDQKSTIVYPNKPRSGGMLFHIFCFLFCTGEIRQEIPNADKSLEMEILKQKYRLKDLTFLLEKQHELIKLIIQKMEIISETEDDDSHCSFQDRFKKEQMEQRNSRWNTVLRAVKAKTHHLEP", "chain of UniProt O00206 (whole entry, looked up)": "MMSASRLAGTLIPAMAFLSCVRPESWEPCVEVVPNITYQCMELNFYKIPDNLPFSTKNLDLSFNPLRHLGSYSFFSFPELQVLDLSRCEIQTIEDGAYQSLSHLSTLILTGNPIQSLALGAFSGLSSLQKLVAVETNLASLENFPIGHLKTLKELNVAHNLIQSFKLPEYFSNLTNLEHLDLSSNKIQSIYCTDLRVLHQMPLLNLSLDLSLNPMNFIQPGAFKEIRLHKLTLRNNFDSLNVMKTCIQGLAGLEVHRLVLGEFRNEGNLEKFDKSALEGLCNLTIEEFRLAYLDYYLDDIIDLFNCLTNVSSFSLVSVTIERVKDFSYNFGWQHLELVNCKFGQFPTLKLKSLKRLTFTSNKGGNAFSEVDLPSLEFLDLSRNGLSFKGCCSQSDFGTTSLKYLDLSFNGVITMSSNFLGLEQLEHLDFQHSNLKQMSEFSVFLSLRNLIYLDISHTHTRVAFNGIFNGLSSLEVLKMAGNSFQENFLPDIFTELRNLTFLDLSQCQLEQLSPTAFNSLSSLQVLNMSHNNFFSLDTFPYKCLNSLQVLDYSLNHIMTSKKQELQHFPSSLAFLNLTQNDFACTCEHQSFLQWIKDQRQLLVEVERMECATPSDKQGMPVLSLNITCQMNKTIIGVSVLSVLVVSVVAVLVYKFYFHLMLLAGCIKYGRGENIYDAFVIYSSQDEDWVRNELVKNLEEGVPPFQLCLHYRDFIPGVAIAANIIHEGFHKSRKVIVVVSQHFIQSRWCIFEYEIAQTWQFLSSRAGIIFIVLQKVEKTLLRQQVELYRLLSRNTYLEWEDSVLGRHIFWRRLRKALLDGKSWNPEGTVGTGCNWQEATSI", "chain of UniProt Q9Z282 (whole entry, looked up)": "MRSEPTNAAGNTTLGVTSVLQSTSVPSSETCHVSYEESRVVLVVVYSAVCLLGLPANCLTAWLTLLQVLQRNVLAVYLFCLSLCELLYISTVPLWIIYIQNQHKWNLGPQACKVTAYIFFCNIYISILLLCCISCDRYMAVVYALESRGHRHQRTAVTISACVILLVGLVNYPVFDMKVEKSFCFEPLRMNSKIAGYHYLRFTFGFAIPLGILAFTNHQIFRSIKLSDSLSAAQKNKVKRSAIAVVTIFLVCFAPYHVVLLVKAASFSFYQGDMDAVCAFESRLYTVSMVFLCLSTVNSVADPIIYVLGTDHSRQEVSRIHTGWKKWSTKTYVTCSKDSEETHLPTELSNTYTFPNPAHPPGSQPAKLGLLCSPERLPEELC", "chain of UniProt Q86XQ3 (whole entry, looked up)": "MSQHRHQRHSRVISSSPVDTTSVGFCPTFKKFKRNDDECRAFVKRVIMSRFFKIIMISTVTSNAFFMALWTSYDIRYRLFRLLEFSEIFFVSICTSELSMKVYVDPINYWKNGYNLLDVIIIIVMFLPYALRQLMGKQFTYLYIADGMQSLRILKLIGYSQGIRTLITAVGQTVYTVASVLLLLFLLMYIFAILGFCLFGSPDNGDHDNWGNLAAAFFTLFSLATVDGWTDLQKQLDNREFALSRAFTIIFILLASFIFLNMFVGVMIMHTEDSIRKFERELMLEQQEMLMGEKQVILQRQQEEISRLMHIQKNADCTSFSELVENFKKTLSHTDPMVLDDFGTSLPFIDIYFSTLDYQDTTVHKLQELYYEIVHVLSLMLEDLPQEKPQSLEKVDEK", "chain of UniProt Q96P56 (whole entry, looked up)": "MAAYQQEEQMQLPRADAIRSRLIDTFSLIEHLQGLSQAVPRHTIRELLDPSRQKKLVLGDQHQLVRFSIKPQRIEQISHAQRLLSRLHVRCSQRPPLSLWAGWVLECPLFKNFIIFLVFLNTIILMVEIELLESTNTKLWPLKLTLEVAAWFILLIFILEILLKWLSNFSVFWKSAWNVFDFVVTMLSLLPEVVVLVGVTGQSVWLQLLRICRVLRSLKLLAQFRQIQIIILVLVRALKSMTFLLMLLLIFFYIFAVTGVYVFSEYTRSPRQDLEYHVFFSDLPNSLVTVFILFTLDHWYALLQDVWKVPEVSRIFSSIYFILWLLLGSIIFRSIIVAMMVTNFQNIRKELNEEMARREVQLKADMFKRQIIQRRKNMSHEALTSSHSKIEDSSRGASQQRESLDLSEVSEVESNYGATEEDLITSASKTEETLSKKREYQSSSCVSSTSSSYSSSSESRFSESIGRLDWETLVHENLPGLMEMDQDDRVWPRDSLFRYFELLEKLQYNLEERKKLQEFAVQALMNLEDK"}
{"SMILES": "O=C(NC[C@@H](Cc1ccc(F)cc1)N1CCC(O)(C(F)(F)F)CC1)C1(c2ccc(Cl)cc2)CCCC1", "target": "Transient receptor potential cation channel subfamily A member 1 (TRPA1, Homo sapiens, UniProt O75762, I890V)", "assay": "calcium influx, agonist", "system": "HEK293F transfected", "setting": "I890V variant, unit not given", "scale": "reference: AITC", "Emax": "0.39 ± 0.04"}
{"SMILES": "N#CCCN1CCN(C(=S)c2ccc(-c3cccc(Cl)c3)o2)CC1", "target": "NPR2", "assay": "HTRF, refers to: cGMP", "system": "HEK293 overexpressing GC-B", "setting": "added: subthreshold CNP", "scale": "reference: saturating CNP", "Emax": "80%"}
{"SMILES": "Cc1cc(C(=O)Cn2ccccc2=O)c(C)n1Cc1ccccc1", "target": "S1PR2", "assay": "reporter gene, agonist", "Emax": "10%"}
{"SMILES": "CC(C)C[C@H](NC(=O)[C@H](CCCNC(=N)N)NC(=O)CNC(=O)CNC(=O)[C@H](CO)NC(=O)[C@H](Cc1c[nH]cn1)NC(=O)[C@H](Cc1c[nH]c2ccccc12)NC(=O)[C@H](CO)NC(=O)CNC(=O)[C@H](Cc1c[nH]c2ccccc12)NC(=O)CNC(=O)[C@H](C)NC(=O)[C@@H](NC(=O)[C@H](CCC(N)=O)NC(=O)[C@H](CS)NC(=O)[C@H](CCCNC(=N)N)NC(=O)[C@@H](NC(=O)CN)[C@@H](C)O)C(C)C)C(=O)N[C@@H](CO)C(=O)N[C@@H](CCCNC(=N)N)C(=O)N[C@@H](Cc1ccccc1)C(=O)N1CCC[C@H]1C(=O)N[C@@H](CCCNC(=N)N)C(=O)N[C@@H](Cc1ccccc1)C(=O)N[C@H](C(=O)N[C@@H](CC(N)=O)C(=O)N[C@H](C(=O)O)C(C)C)C(C)C", "target": "TLR4", "assay": "reporter gene, agonist", "system": "HEK-Blue hTLR4", "Emax": "0%"}
{"SMILES": "O=C(NC[C@@H](Cc1ccccc1)N1CCC(O)(C(F)(F)F)CC1)C1(c2ccc(Cl)cc2)CCCC1", "target": "Transient receptor potential cation channel subfamily A member 1 (TRPA1, Homo sapiens, UniProt O75762)", "assay": "calcium influx, agonist", "system": "HEK293F transfected", "scale": "reference: AITC 300 µM", "Emax": "26 ± 0.9%"}
{"SMILES": "Cc1cc(C(=O)Cn2cc(C(F)(F)F)ccc2=O)c(C)n1-c1ccccc1", "target": "S1PR2", "assay": "reporter gene, agonist", "Emax": "0%"}
{"SMILES": "O=C(CNC(=O)c1ccc(O)c(-c2ccc(Cl)c(Cl)c2)c1)NCCc1ccc(Cl)c(Cl)c1", "target": "Probable G-protein coupled receptor 132 (Gpr132, Mus musculus, UniProt Q9Z282)", "assay": "β-arrestin association, agonist, PathHunter", "setting": "mouse GPR132", "scale": "reference: compound", "Emax": "100%"}
{"SMILES": "N#CCCN1CCN(C(=S)c2ccc(-c3ccccc3)o2)CC1", "target": "NPR2", "assay": "HTRF, refers to: cGMP", "system": "HEK293 overexpressing GC-B", "setting": "added: subthreshold CNP", "scale": "reference: saturating CNP", "Emax": "60%"}
{"SMILES": "Cc1cc(C(=O)Cn2cc(C(F)(F)F)ccc2=O)c(C)n1Cc1ccccc1", "target": "S1PR2", "assay": "reporter gene, agonist", "Emax": "100%"}
{"SMILES": "N#CCCN1CCN(C(=S)c2ccc(-c3ccccc3F)o2)CC1", "target": "NPR2", "assay": "HTRF, refers to: cGMP", "system": "HEK293 overexpressing GC-B", "setting": "added: subthreshold CNP", "scale": "reference: saturating CNP", "Emax": "96%"}
{"SMILES": "CC[C@H](C)[C@H](NC(=O)[C@H](CC(C)C)NC(=O)[C@H](C)NC(=O)CNC(=O)CNC(=O)[C@H](CS)NC(=O)[C@H](Cc1ccccc1)NC(=O)[C@H](Cc1c[nH]cn1)NC(=O)[C@H](CCCNC(=N)N)NC(=O)CNC(=O)[C@H](CCC(N)=O)NC(=O)[C@@H](N)CC(N)=O)C(=O)N[C@@H](Cc1c[nH]cn1)C(=O)N[C@@H](C)C(=O)N[C@@H](CCCNC(=N)N)C(=O)N[C@@H](Cc1ccccc1)C(=O)N[C@H](C(=O)N[C@@H](CCSC)C(=O)N[C@H](C(=O)N[C@@H](C)C(=O)N[C@@H](C)C(=O)N[C@@H](CO)C(=O)N[C@@H](CS)C(=O)N[C@@H](Cc1ccccc1)C(=O)N[C@@H](CCC(N)=O)C(=O)O)[C@@H](C)O)C(C)C", "target": "TLR4", "assay": "reporter gene, agonist", "system": "HEK-Blue hTLR4", "Emax": "15%"}
{"SMILES": "C/C(=C\\CC[C@@]1(C)[C@@H]2C=C(CO)CC[C@@H]21)CO", "target": "CatSper channel complex (Homo sapiens, UniProt Q7RTX7+Q86XQ3+Q8NEC5+Q96P56)", "assay": "calcium influx, activator, FLIPR Fluo-4", "system": "human sperm", "setting": "3 µM", "scale": "reference: saturating progesterone", "Emax": "102%"}
{"note": "Repeated from above:"}
{"SMILES": "Cc1cc(C(=O)Cn2cc(C(F)(F)F)ccc2=O)c(C)n1Cc1ccccc1", "target": "S1PR2", "assay": "reporter gene, agonist", "Emax": "100%"}
{"SMILES": "N#CCCN1CCN(C(=S)c2ccc(-c3ccccc3F)o2)CC1", "target": "NPR2", "assay": "HTRF, refers to: cGMP", "system": "HEK293 overexpressing GC-B", "setting": "added: subthreshold CNP", "scale": "reference: saturating CNP", "Emax": "96%"}
